Assay results gathered from unrelated publications.
Compare with care: the assays were run in different laboratories. ± marks the error that the study gave.
OPRD1: Delta-type opioid receptor (OPRD1, Homo sapiens, UniProt P41143)
Chain of UniProt P41143 (whole entry, looked up): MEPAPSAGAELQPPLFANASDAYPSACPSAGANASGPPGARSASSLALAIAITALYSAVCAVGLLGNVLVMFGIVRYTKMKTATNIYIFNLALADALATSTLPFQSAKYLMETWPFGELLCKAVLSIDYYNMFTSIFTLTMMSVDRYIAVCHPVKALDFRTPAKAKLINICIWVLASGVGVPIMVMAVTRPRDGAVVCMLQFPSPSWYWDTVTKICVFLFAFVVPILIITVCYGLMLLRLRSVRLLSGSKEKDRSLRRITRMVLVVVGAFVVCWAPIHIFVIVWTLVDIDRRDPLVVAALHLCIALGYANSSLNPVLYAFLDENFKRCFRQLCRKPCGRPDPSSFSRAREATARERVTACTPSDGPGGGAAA
CNR1: Cannabinoid receptor 1 (CNR1, Homo sapiens, UniProt P21554)
Chain of UniProt P21554 (whole entry, looked up): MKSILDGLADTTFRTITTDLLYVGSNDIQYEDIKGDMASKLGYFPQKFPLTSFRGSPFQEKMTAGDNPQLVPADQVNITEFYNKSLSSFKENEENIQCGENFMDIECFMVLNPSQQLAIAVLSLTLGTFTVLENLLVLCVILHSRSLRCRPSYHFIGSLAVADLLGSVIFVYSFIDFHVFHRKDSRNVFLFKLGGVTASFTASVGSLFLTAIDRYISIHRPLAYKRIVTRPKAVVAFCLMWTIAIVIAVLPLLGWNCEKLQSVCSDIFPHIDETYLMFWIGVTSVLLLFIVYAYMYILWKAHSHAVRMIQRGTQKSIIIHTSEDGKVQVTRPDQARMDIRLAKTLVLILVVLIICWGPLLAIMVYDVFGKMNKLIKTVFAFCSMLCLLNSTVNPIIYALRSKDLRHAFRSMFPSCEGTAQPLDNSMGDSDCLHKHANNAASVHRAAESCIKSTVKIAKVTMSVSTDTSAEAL
KCNMA1 with beta-3 subunit: Calcium-activated potassium channel subunit alpha-1, with beta-3 subunit (KCNMA1, Homo sapiens, UniProt Q12791)
Chain of UniProt Q12791 (whole entry, looked up): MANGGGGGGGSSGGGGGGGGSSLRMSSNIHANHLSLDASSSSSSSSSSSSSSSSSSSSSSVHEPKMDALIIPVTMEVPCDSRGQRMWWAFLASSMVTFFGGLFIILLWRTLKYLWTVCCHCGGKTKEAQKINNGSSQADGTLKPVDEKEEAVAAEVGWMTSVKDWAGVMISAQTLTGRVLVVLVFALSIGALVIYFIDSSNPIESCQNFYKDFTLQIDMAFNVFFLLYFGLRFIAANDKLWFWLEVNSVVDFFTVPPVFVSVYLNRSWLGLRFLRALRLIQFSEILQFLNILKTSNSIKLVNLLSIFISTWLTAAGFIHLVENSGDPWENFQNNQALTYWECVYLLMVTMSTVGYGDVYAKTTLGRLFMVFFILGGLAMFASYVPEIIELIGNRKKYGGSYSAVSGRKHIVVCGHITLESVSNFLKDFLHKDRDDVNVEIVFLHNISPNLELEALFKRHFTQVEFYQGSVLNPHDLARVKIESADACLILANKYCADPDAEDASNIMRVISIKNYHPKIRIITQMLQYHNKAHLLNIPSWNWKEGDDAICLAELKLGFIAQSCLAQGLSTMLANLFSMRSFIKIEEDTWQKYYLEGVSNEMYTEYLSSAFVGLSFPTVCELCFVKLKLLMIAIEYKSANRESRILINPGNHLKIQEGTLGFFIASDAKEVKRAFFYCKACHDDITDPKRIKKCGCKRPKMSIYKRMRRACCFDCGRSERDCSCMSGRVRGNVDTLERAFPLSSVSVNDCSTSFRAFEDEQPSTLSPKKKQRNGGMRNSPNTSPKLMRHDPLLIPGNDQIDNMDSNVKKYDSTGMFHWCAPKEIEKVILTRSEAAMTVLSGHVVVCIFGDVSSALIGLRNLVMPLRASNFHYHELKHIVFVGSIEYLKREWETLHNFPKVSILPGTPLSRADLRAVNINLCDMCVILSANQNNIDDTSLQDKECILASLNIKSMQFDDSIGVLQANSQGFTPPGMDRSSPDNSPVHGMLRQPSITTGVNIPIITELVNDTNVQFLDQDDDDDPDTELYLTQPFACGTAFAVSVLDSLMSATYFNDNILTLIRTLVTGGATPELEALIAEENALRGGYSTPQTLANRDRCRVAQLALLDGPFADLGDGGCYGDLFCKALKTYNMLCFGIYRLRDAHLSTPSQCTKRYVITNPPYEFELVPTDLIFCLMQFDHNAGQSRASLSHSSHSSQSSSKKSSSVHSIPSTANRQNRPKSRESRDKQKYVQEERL
Ryanodine receptor 1: Ryanodine receptor 1 (Oncorhynchus mykiss, UniProt A0A8C7UX14)
Chain of UniProt Q97W02 (whole entry, looked up): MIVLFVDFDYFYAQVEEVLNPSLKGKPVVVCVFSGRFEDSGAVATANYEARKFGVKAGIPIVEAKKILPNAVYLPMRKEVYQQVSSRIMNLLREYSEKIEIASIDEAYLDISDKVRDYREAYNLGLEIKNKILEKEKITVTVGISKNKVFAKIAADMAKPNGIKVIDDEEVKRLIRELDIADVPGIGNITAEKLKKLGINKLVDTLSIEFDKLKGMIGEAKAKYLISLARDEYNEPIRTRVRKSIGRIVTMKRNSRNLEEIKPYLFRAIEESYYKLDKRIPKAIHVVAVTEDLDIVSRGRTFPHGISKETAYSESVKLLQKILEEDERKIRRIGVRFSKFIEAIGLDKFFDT
Chain of UniProt P18825 (whole entry, looked up): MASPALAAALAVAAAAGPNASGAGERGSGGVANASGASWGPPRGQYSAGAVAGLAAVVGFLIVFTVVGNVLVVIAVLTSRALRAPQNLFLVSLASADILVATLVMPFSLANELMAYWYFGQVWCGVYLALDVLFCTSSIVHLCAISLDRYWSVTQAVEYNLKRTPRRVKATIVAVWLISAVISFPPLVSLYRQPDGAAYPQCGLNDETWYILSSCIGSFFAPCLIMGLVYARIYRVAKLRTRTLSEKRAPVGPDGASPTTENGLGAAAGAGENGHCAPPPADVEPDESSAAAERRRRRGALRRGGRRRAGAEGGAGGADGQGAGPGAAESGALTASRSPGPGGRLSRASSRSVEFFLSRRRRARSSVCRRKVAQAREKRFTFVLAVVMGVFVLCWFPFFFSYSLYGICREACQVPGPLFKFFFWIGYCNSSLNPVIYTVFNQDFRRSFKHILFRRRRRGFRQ
Chain of UniProt P04181 (whole entry, looked up): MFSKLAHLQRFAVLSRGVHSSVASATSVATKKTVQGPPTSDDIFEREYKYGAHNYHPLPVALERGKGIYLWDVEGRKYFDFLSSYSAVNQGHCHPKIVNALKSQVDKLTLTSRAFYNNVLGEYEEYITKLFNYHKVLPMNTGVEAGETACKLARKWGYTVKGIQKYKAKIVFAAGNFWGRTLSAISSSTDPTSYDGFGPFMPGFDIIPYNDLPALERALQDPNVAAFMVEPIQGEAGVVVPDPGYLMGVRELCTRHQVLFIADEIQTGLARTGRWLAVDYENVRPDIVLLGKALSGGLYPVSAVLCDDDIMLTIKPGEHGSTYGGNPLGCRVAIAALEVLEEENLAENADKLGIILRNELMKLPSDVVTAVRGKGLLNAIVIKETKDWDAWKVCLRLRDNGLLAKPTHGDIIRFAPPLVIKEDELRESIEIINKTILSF
Chain of UniProt Q13126 (whole entry, looked up): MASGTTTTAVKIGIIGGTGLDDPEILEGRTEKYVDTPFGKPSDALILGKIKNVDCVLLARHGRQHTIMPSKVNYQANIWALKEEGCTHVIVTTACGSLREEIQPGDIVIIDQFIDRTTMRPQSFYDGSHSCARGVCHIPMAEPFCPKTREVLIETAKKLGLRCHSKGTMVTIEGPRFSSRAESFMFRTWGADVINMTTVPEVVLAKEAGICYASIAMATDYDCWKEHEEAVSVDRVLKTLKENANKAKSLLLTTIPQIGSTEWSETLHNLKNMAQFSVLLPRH
Chain of UniProt P31424 (whole entry, looked up): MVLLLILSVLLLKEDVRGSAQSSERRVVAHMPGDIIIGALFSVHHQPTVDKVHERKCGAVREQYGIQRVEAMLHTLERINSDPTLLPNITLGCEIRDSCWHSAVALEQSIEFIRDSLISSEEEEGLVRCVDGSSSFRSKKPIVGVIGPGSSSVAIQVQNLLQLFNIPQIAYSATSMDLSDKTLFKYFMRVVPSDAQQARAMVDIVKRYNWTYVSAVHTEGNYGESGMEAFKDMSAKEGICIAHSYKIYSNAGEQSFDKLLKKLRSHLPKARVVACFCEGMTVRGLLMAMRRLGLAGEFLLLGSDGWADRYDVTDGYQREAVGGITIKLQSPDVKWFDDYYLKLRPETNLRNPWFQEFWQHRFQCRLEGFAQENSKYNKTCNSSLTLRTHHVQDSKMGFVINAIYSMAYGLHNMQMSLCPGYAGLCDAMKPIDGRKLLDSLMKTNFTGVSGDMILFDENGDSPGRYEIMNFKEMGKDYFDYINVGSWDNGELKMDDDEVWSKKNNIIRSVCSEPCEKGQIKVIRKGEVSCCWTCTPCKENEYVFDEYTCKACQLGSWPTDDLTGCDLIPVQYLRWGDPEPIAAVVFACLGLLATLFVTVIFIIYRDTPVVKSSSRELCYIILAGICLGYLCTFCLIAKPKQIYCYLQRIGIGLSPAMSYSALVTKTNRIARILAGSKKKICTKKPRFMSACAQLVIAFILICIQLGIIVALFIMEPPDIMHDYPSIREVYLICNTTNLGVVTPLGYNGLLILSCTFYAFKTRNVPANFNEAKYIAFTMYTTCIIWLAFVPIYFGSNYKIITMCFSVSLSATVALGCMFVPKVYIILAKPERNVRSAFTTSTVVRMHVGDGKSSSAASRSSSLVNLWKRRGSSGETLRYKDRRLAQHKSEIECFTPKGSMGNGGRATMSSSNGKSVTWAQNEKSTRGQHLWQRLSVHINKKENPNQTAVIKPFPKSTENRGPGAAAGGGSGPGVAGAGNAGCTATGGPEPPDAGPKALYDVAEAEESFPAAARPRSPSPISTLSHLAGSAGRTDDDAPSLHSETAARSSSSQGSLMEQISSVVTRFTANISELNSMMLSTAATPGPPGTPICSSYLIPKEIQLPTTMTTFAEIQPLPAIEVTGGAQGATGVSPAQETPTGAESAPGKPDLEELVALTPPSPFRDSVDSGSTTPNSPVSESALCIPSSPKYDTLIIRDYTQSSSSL

`anthraquinone-neomycin` gave a binding enthalpy of -12.7 ± 0.2 kcal/mol (poly(dA)•2poly(dT) triplex DNA; isothermal titration calorimetry; concentration not given, pH 6.8, 20 °C, KCl 150 mM).
With `Nc1ccn([C@H]2C[C@H](O)[C@@H](COP(=O)(O)OP(=O)(O)OP(=O)(O)O)O2)c(=O)n1` the misincorporation frequency was 10.3% (DNA polymerase IV, with DNA (dbh, Saccharolobus solfataricus, UniProt Q97W02); nucleotide incorporation opposite dC, single-turnover extension of lesion bypass product; lesion bypass extension, with: 21/26-mer dG-C8-N-ABA primer-template).
The Ke of `CC(C)[C@@H](CN1CCN(c2cccc(O)c2)[C@@H](C)C1)NC(=O)c1ccc(Oc2ccccc2O)cc1` is reported as 960 ± 220 nM (OPRD1; antagonist; CHO; with: DPDPE).
With `O=[P@]1(S)OC[C@H]2O[C@@H](n3cnc4cc(Cl)c(Cl)cc43)[C@H](O)[C@@H]2O1` the selectivity ratio was 2.1 (cAMP-dependent protein kinase type II-beta regulatory subunit, holoenzyme with catalytic subunit (Prkar2b, Rattus norvegicus, UniProt P12369, S112A); PKA holoenzyme activation, activator, fluorescence anisotropy; reference: RIIβ over RIα, higher = RIIβ-selective).
`CC1N=C(c2ccccc2F)c2cc(Nc3ccc([N+](=O)[O-])cc3)ccc2NC1=O` (stereo not drawn) gave an inhibition of 41% (ADRA2C (Homo sapiens, UniProt P18825); ligand displacement, radioligand; 10 µM).
`O=S(=O)(O)Oc1ccc(-c2ccc(Cl)cc2Cl)cc1Cl` has a Vmax of 33.8 ± 3 nmol/min/mg (sulfatase, human liver microsomes; substrate; pH 7.4, 37 °C).
`CN1CC[C@@]2(C)c3cc(OC(=O)Nc4ccccc4)ccc3N(C)[C@@H]12` — result for “decarbamoylation rate constant k3”: 2.59 ± 0.042 h⁻¹ (Cholinesterase (BCHE, Homo sapiens, UniProt P06276); inhibitor, immobilized enzyme reactor, HPLC-UV; immobilized recombinant human enzyme; 30 °C, after near-complete inhibition).
For `O=c1[nH]cnc2c1ncn2[C@@H]1O[C@@H]2COP(=O)(O)O[C@H]3[C@@H](O)[C@H](n4cnc5c(=O)[nH]cnc54)O[C@@H]3COP(=O)(O)O[C@H]2[C@H]1O`, the degradation rate was ≤ 0.001 mol/min/mol enzyme (gdpP, residues 84-659 (Bacillus subtilis, UniProt P37484); substrate, HPLC; 100 µM, 37 °C, upper limit if undegraded 24 h, with: enzyme 1 µM).
The Emax of `NC(=O)c1cccc(CNC(=O)c2nn(Cc3ccc(F)cc3)c3ccccc23)c1` is reported as 100% (CNR1; calcium mobilization, agonist; CHO-K1 expressing Gαq16; reference: CP55,940 maximum).
`HSGTESQAKHCIPEKNHTLQ` has a kcat of 5.2 ± 0.1 s⁻¹ (PTPN22 (Homo sapiens, UniProt Q9Y2R2); enzyme activity; peptide; 25 nM, pH 6.0, with: DiFMUP).
With `C[C@H]1CCCC(=O)CCC/C=C/c2cc(O)cc(O)c2C(=O)O1` the Km was 28.2 ± 3.18 mM (zhd101 (Clonostachys rosea, UniProt Q8NKB0); substrate, HPLC; 10 min, pH 5.5, 37 °C, 1% acetonitrile).
Under activity, `CCOc1ccccc1S(=O)(=O)N1CCC(c2nc(-c3ccc(F)cc3)no2)CC1` is recorded as “inactive” (KCNMA1 with beta-3 subunit; HEK293; 30 µM).
With `Clc1ccc(Cl)c(-c2cc(Cl)c(Cl)cc2Cl)c1` the Emax was 194 ± 7.99% (Ryanodine receptor 1; [3H]ryanodine binding; rainbow trout, skeletal muscle microsomes; up to 20 µM; reference: DMSO).
Under off-target binding, `CN(C)C1(CNC(=O)c2ccc3c(c2)CCN3C(=O)c2ccccc2)CCOCC1` is recorded as “inactive” (GABAA, H1, adenosine, adrenergic, muscarinic receptors; Cerep panel; 1×10-5 M).
`C[C@@H]1CN(c2ccc(F)cc2)C(=O)c2cc(COc3ccccn3)nn21` has a remaining activity of 26.5% (Grm5 (Rattus norvegicus, UniProt P31424); calcium signal, antagonist; 30 µM).
With `CN[C@@](C)(C[18F])C(=O)O` the tissue uptake was 3.1 ± 0.2 %ID/g (SCID mouse U87 xenograft, lung; 30 min, post injection).
`O=C(OC1CCCN(CCCc2ccccc2)C1)c1ccccc1-c1ccccc1` (stereo not drawn) — result for “potency fold change”: 1.5 (Neuronal acetylcholine receptor; alpha4/beta2 (Homo sapiens, UniProt P17787+P43681); concentration not given; reference: amide analogue over parent scaffold).
The substrate hydrolysis of `C[C@@H](OP(=O)(O)O)[C@H](N)C(=O)O` is reported as 3.67% (Phospholysine phosphohistidine inorganic pyrophosphate phosphatase (LHPP, Homo sapiens, UniProt Q9H008); substrate, absorbance; 100 µM, 90 min, pH 7.8).
For `ganglioside GT1b`, “NMR signal reduction” read 65.5% (Major capsid protein VP1 (BK polyomavirus, UniProt P03088); binding, 1H-NMR line broadening, item: NH-acetyl protons; 80 µM, pH 7.9-8.0, 298 K, with: protein 8 µM).
`O=C(CCc1ccccc1)NC1CCOC1=O` (stereo not drawn) gave an activation of 64% (rhlR (Pseudomonas aeruginosa, UniProt P54292); reporter gene, agonist; Escherichia coli reporter strain; 100 µM; reference: BHL 900 µM).
Under “competitive binding inhibition”, `Trp-D-Phe-Asp-Lys-D-Phe-D-Asn-His-Dap` is recorded as “inhibited” (GTPase KRas (KRAS, Homo sapiens, UniProt P01116, G12V); fluorescence anisotropy; concentration not given, with: FITC-labelled same peptide).
`CC(C)(C)C1CCCC(C(C)(C)C)C1O` (stereo not drawn) — result for “decrease in efficacy”: > 4 fold (Hcn1 (Mus musculus, UniProt O88704); V1/2 shift, two-electrode voltage clamp; Xenopus oocytes; reference: cyclohexanol over corresponding phenol).
`Clc1ccc(Cl)c(-c2cc(Cl)ccc2Cl)c1` gave an Emax of 250 ± 7.88% (Ryanodine receptor 1; [3H]ryanodine binding; rainbow trout, skeletal muscle microsomes; up to 20 µM; reference: DMSO).
The kinact of `C=CC(=O)NCCCC[C@H](NC(=O)OCc1ccccc1)C(=O)NCCOCCOCCNS(=O)(=O)c1cccc2c(N(C)C)cccc12` is reported as 0.0433 ± 0.00283 s⁻¹ (TGM2 (Homo sapiens, UniProt P21980); pH 6.5).
For `CC(C)(NC(=O)c1nn(CCC2CCCC2)c2ccccc12)c1cccc(C(N)=O)c1`, the Emax was 51 ± 1% (CNR1; calcium mobilization, agonist; CHO-K1 expressing Gαq16; reference: CP55,940 maximum).
For `N[C@H]1C=C(C(=O)O)CCC1=C(F)F`, the KI (inactivation) was 10 µM (OAT (Homo sapiens, UniProt P04181); enzyme activity, inhibitor).
`CSCC1NC(c2c[nH]c3c(N)ncnc23)[C@@H](O)[C@H]1O` (stereo partly drawn) — result for “coupling free energy”: -2.6 kcal/mol (MTAP (Homo sapiens, UniProt Q13126); binding, thermodynamic cycle; with: phosphate).
For `CC[C@H](C)[C@H](NC(=O)[C@H](C)NC(=O)[C@H](CCC(=O)O)NC(C)=O)C(=O)N[C@H]1CCCC=CCCC[C@@H](C(=O)N[C@@H](CCC(N)=O)C(=O)N[C@@H](CC(C)C)C(=O)N[C@@H](CC(C)C)C(=O)N[C@@H](Cc2ccccc2)C(=O)N[C@H](C(=O)N[C@@H](Cc2c[nH]cn2)C(=O)N[C@@H](Cc2ccccc2)C(=O)N[C@@H](CCCNC(=N)N)C(=O)N[C@H](C(=O)NCC(=O)N[C@@H](CCCNC(=N)N)C(=O)N[C@@H](CCC(=O)O)C(=O)N[C@@H](CCCNC(=N)N)C(=O)N[C@@H](CCC(=O)O)C(=O)N[C@@H](CCCNC(=N)N)C(=O)N[C@@H](CCC(=O)O)C(=O)N[C@@H](CCCNC(=N)N)C(=O)N[C@@H](CCC(=O)O)C(N)=O)[C@@H](C)CC)[C@@H](C)CC)NC(=O)[C@H](CC(C)C)NC(=O)[C@H]([C@@H](C)CC)NC(=O)[C@H](CCCNC(=N)N)NC1=O`, “minimum DNA retardation concentration” read 37 µM (HIV-1 integrase and DNA substrate; DNA binding, gel retardation; 2 h, 37 °C, with: radiolabelled oligonucleotide DNA).
`CC[C@H](C)[C@H](NC(=O)[C@H](C)NC(=O)[C@H](CO)NC(=O)[C@@H](NC(=O)[C@H](CCC(=O)O)NC(=O)[C@H](CCC(=O)O)NC(=O)[C@H](CCC(N)=O)NC(=O)[C@H](CCCCN)NC(=O)[C@H](CCCNC(=N)N)NC(=O)[C@@H](N)CCCCN)C(C)C)C(=O)N[C@H](C(=O)N[C@H](C(=O)N[C@@H](CCC(N)=O)C(=O)N[C@@H](CCCNC(=N)N)C(=O)N[C@@H](C)C(=O)N[C@@H](Cc1ccc(O)cc1)C(=O)N[C@@H](CCCNC(=N)N)C(=O)N[C@@H](CCCNC(=N)N)C(=O)N[C@@H](Cc1ccc(O)cc1)C(=O)N[C@@H](CC(C)C)C(=O)N[C@@H](CC(C)C)C(=O)N[C@@H](CCCCN)C(=O)N[C@@H](CCC(N)=O)C(=O)N[C@@H](CCCCN)C(=O)N[C@H](C(=O)N[C@@H](CCCCN)C(=O)N[C@@H](CCCCN)C(=O)O)C(C)C)[C@@H](C)CC)C(C)C` — result for “fluorescence emission increase”: 13% (Calmodulin (CAM, Paramecium tetraurelia, UniProt P07463); 3 to 1 µM, pH 7.4, 22 °C, apo CaM residues 1-148; reference: peptide alone).
`Clc1cc(Cl)c(-c2c(Cl)cc(Cl)c(Cl)c2Cl)cc1Cl` has an EC20 of 6.76 µM (Ryanodine receptor 1; [3H]ryanodine binding; rainbow trout, skeletal muscle microsomes).
With `CC(C)[C@@H](CN1CCN(c2cccc(O)c2)[C@@H](C)C1)NC(=O)c1ccc(Oc2ccccc2)cc1` the Ke was 570 ± 79 nM (OPRD1; antagonist; CHO; with: DPDPE).
For `Clc1ccc(-c2c(Cl)ccc(Cl)c2Cl)c(Cl)c1Cl`, the Emax was 122 ± 9.49% (Ryanodine receptor 1; [3H]ryanodine binding; rainbow trout, skeletal muscle microsomes; up to 20 µM; reference: DMSO).
For `O=S(=O)(O)c1nc2ccccc2[nH]1`, “binding free energy” read -4.66 kcal/mol (racE (Bacillus subtilis, UniProt P94556, N75A); enzyme activity, inhibitor).
`O=S(=O)(c1ccccc1OCC(F)(F)F)N1CC(c2nc(-c3ccc(F)cc3)no2)C1`: activity “inactive” (KCNMA1 with beta-3 subunit; HEK293; 30 µM).
`CC(=O)OC[C@H]1O[C@@H]([S-])[C@H](OC(C)=O)[C@@H](OC(C)=O)[C@@H]1OC(C)=O.CCP(CC)CC.[Au+]` — result for “receptor occupancy reduction”: 50% (Recombining binding protein suppressor of hairless, DNA-bound (Homo sapiens, UniProt Q06330); ChIP-qPCR; NICD-transfected HEK-293T; 2.5 µM, 24 h, RBPJ sites of reporter).
The Emax of `NC(=O)CN1CCC[C@H](CNC(=O)c2nn(Cc3ccc(F)cc3)c3ccccc23)C1` is reported as 110 ± 4% (CNR1; calcium mobilization, agonist; CHO-K1 expressing Gαq16; reference: CP55,940 maximum).

A few entries again:
`Clc1ccc(Cl)c(-c2cc(Cl)ccc2Cl)c1` gave an Emax of 250 ± 7.88% (Ryanodine receptor 1; [3H]ryanodine binding; rainbow trout, skeletal muscle microsomes; up to 20 µM; reference: DMSO).
With `Clc1ccc(Cl)c(-c2cc(Cl)c(Cl)cc2Cl)c1` the Emax was 194 ± 7.99% (Ryanodine receptor 1; [3H]ryanodine binding; rainbow trout, skeletal muscle microsomes; up to 20 µM; reference: DMSO).
The kinact of `C=CC(=O)NCCCC[C@H](NC(=O)OCc1ccccc1)C(=O)NCCOCCOCCNS(=O)(=O)c1cccc2c(N(C)C)cccc12` is reported as 0.0433 ± 0.00283 s⁻¹ (TGM2 (Homo sapiens, UniProt P21980); pH 6.5).
`O=S(=O)(c1ccccc1OCC(F)(F)F)N1CC(c2nc(-c3ccc(F)cc3)no2)C1`: activity “inactive” (KCNMA1 with beta-3 subunit; HEK293; 30 µM).
`O=C(OC1CCCN(CCCc2ccccc2)C1)c1ccccc1-c1ccccc1` (stereo not drawn) — result for “potency fold change”: 1.5 (Neuronal acetylcholine receptor; alpha4/beta2 (Homo sapiens, UniProt P17787+P43681); concentration not given; reference: amide analogue over parent scaffold).
